Results pooled from the literature.
Every numbered part comes from another study and shows a few of its results, in no order. Positions count from the first letter of the parent shown.

Sample 1 — technique: protein-binding microarray; molecule type: double-stranded DNA, one strand shown; sample: in vitro; concentration: not given; reading: higher = stronger binding
Target: Transcriptional repressor CTCF (CTCF, Homo sapiens, UniProt P49711, residues 1-727, full length assumed)
Chain of UniProt P49711 (whole entry, looked up): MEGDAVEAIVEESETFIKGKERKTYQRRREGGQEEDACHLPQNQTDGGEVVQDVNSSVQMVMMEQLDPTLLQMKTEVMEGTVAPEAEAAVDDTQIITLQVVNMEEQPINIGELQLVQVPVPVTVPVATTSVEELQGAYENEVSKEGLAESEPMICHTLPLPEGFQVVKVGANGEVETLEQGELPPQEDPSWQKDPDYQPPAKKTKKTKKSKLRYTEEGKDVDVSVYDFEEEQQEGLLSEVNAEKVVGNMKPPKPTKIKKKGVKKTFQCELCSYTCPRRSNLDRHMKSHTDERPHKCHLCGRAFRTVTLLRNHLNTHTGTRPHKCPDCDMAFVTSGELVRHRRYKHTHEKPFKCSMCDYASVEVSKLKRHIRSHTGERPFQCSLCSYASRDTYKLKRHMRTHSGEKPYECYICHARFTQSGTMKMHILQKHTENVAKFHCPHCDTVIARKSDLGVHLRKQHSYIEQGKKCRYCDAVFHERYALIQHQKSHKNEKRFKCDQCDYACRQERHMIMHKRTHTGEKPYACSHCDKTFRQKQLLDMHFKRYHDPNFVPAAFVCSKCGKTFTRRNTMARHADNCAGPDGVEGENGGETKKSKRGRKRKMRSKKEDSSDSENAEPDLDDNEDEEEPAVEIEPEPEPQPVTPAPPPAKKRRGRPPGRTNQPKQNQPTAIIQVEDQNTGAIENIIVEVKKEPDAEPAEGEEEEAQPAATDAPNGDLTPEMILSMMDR
Setting: k-mer, scored over probes, only values ≥0.25
| Oligonucleotide | E-score |
| --- | --- |
| ACAAATAT | 0.297 |
| TAAACGCA | 0.259 |
| GTAACACA | 0.296 |
| AAAAACGA | 0.316 |
| TAACGCAA | 0.268 |
| AGCGCAAT | 0.332 |
| AAGTATAC | 0.315 |
| AAATGAGT | 0.256 |

Sample 2 — technique: universal PBM; molecule type: double-stranded DNA, one strand shown; sample: in vitro; concentration: not given; reading: higher = stronger binding
Target: Sal-like protein 4, full length isoform B (SALL4, Homo sapiens, UniProt Q9UJQ4-2, residues 1-616)
Setting: 8-mer, flanks averaged, mean of replicates
| Oligonucleotide | E-score |
| --- | --- |
| ACAGGGCC | -0.238 |
| CTAGGGAG | -0.216 |
| CCTGCAAG | -0.257 |
| ACGGTTAG | -0.0688 |
| CCCCCTCG | -0.216 |
| AGGTAATG | 0.0364 |
| CAAGCTCA | -0.33 |
| AACCCCTA | -0.132 |

Sample 3 — effect on: binding; technique: phage display NGS; molecule type: peptide; relative to: input library
Target: UDP-N-acetylglucosamine--peptide N-acetylglucosaminyltransferase 110 kDa subunit (OGT, Homo sapiens, UniProt O15294)
Chain of UniProt O15294 (whole entry, looked up): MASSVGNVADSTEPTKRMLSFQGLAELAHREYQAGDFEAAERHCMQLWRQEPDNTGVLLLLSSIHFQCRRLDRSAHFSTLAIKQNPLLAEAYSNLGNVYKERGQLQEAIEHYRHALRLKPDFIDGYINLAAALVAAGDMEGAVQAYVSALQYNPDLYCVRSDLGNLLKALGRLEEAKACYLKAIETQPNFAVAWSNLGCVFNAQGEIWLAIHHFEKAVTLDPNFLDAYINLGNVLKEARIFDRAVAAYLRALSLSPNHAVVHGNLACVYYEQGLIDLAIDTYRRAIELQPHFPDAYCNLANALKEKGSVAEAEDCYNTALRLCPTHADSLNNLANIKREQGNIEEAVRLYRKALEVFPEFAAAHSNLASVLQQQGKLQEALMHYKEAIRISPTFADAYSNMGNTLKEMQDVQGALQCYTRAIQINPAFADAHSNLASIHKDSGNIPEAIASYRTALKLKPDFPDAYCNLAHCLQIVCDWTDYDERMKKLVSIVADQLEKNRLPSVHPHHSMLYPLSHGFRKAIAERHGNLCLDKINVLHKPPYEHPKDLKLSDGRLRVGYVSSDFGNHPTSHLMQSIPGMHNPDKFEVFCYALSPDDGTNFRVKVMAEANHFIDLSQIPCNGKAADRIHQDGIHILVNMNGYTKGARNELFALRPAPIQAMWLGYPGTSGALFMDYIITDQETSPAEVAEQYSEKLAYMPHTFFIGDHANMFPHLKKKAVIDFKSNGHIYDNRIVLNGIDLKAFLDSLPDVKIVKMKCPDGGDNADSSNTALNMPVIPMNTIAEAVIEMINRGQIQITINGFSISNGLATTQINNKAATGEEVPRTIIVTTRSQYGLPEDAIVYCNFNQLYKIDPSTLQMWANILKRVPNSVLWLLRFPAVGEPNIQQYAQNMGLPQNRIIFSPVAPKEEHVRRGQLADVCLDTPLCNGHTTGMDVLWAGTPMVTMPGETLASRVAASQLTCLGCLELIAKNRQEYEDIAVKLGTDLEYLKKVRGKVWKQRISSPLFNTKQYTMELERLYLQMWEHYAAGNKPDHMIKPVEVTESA
| Molecule | minimum log2 enrichment ratio |
| --- | --- |
| QHAHTHKHHHALTDI | 2.33 |
| RNLHWDHHGPEHQHF | 2.99 |
| HNFHYYHAQPEWSPM | 1.93 |
| SIIPLAHVHNDHHAH | 2.93 |

Sample 4 — target: tungstate, free oxyanion; technique: microfluidic competitive inhibition; sample: in vitro, cell-free expressed; concentration: not given; reading: lower = stronger binding
Setting: derived from inhibition constants, unchanged parent 2230 nM
Parent: PafA, mature enzyme, eGFP fusion (Elizabethkingia meningoseptica, UniProt Q9KJX5); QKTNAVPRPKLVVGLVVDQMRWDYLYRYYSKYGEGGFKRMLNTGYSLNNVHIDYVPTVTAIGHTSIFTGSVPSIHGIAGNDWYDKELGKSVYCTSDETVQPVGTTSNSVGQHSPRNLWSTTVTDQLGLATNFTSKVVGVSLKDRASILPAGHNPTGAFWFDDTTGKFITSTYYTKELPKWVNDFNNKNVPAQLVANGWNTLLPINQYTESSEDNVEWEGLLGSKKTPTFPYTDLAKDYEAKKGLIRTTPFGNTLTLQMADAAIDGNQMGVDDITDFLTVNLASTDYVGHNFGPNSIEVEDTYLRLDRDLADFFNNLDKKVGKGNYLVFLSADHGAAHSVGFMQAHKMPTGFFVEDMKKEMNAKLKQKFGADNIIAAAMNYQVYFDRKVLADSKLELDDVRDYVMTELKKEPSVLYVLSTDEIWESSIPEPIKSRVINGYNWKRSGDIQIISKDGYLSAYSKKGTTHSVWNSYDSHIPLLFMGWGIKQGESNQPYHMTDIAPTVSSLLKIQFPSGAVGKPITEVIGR
| Variant | oxyanion analog dissociation constant [µM] |
| --- | --- |
| K236G | 1.9 |
| S134G | 2.16 |
| Y28V | 2.3 |
| R443G | 2.89 |
| K187G | 2.13 |
| Q448G | 2.51 |
| N107V | 2.24 |
| D237G | 1.24 |
| N186G | 1.99 |
| D264V | 1.89 |
| A259V | 2.44 |
| V270A | 2.34 |
| L47G | 2.04 |
| L506V | 2.36 |
| K179V | 2.52 |
| F250V | 1.83 |
| W180G | 1.06 |
| K31V | 2.77 |

Excerpt of the above (sample 4):
| Variant | oxyanion analog dissociation constant [µM] |
| --- | --- |
| K236G | 1.9 |
| N186G | 1.99 |
| K187G | 2.13 |
| L47G | 2.04 |
| A259V | 2.44 |
| S134G | 2.16 |
